Measurements of several laboratories.
Every numbered part comes from another study and shows a few of its results, in no order. Substitutions count along the parent as printed.
UniProt P43403, sequence (whole entry, looked up): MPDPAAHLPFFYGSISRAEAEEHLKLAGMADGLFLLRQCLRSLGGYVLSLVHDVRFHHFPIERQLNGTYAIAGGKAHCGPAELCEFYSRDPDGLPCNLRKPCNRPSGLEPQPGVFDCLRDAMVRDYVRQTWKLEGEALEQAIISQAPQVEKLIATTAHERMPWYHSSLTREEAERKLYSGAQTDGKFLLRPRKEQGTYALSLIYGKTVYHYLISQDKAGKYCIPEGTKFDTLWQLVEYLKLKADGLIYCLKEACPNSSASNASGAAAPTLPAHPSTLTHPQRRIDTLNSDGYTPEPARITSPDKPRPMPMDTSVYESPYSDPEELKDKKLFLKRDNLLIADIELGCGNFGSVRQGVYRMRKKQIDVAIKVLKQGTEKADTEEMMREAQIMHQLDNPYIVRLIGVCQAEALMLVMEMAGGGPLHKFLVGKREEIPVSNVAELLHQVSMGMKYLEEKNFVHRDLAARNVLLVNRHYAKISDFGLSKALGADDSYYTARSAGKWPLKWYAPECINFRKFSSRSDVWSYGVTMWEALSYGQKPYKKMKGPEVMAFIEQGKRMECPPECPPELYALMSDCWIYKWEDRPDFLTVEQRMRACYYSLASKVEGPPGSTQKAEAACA

Sample 1
Target: ABI1, truncated, D143A, DHFR fusion (Arabidopsis thaliana, UniProt P49597)
Method: DHFR PCA, dose-response
Medium: yeast
Notes: Hill fit, mean, not affinity
Added: (+)-ABA, dose series
Reading: lower = more sensitive
Starting sequence: PYL1, truncated, DHFR fusion (Arabidopsis thaliana, UniProt Q8VZS8); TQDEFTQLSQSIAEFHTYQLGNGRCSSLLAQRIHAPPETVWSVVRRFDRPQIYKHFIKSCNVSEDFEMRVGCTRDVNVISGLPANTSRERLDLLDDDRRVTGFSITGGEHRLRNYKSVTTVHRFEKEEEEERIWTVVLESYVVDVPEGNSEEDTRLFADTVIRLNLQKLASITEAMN
Change	ABA EC50
G108V	619 µM
V44R	200 µM
Q10I	12.3 µM
T1I	1.43 µM
Q2T	1.35 µM
P36F	25.9 µM
T154G	570 µM
R46T	10.2 µM

Sample 2
Target: CCNF, cyclin fold, Cln2 fusion (human)
Method: yeast growth competition, sequencing
Medium: yeast
Notes: strong parent motif
Baseline: not given
Reading: higher = stronger binding
Starting sequence: RB1 docking peptide (human); PKPLKKLRFDIEG
Change	normalised enrichment score
PKPLKKLRFDIEW [G13W]	1.51
PKPLKKQRFDIEG [L7Q]	-0.00433
MKPLKKLRFDIEG [P1M]	1.1
PKPLKKLRFDISG [E12S]	0.836
PKPLKYLRFDIEG [K6Y]	-0.0291
DKPLKKLRFDIEG [P1D]	3.22
IKPLKKLRFDIEG [P1I]	0.695
PPPLKKLRFDIEG [K2P]	0.459

Sample 3
Target: Prothrombin, mature alpha-thrombin (F2, Homo sapiens, UniProt P00734)
Method: aptamer microarray, sandwich
Form: DNA with 2'F-ANA
Medium: in vitro
Tested at: 200 nM
Notes: whole 15-mer aptamer, many near background
Added: Cy3 exosite-II aptamer, 400 nM
Reading: higher = stronger binding
Strand: GGTTGGTGTGGTTGG
Modification	mean fluorescence intensity [a.u.]
2'F-ANA at 2 3 4 5 7 8 12 13 15	147
2'F-ANA at 2 3 5 8 10 15	61.9
2'F-ANA at 3 8 13	1020
2'F-ANA at 1 2 3 4 6 7 10 11 12 15	66.9
2'F-ANA at 4 5 6 7 11 13 14 15	46.6
2'F-ANA at 1 2 3 5 9 10 11 14	45.7
2'F-ANA at 1 2 3 4 12 13 14	68.4
2'F-ANA at 2 3 4 13	487

Further values, each from its own experiment
Compound	target	assay	conditions	scale	endpoint	result
Nc1nccc(-c2c(-c3ccc(F)cc3)ncn2C2CCNCC2)n1	Tyrosine-protein kinase ZAP-70 (ZAP70, Homo sapiens, UniProt P43403)	enzyme activity, inhibitor	0.5 µM	baseline: control	remaining activity	92.3%
